Experimental data gathered from unrelated publications.
Lines come from different studies, so protocols differ.

Compound | species | matrix | route | dose | notes | AUC(0-t)
CCC(=O)NC1CC=C(c2cc3c(Nc4cc5ncsc5cc4F)ncnc3s2)CC1 (racemic) | mouse | plasma | intravenous | 10 mg/kg |  | 23.4 µg·h/mL
COC1C=COC2(C)Oc3c(C)c(O)c4c(c3C2=O)C2=NC3(CCN(CC(C)C)CC3)NC2=C(NC(=O)C(C)=CC=CC(C)C(O)C(C)C(O)C(C)C(OC(=O)Nc2cscn2)C1C)C4=O (stereo not shown) | female CD-1 mouse | plasma | oral | 10 mg/kg |  | 35.7 µg·h/mL
COc1cc(C2C3=C(COC3=O)N(CCO)c3cc4c(cc32)CCC4)cc(OC)c1OC (stereo not shown) | female C57BL/6 mouse | plasma | intraperitoneal | 50 mg/kg |  | 2.5 µg·h/mL
O=C(O)c1ccc(/C=C2\SC(=S)N(Cc3cccc(C(F)(F)F)c3)C2=O)cc1 | C57BL/6 mouse | blood | intravenous | 5 mg/kg |  | 5.72 µg·h/mL
Cn1c2cc([S+](C)[O-])sc2c2cnn(Cc3cccc(N)c3)c(=O)c21 (stereo not shown) | male BALB/c mouse | plasma | intravenous | 1 mg/kg | single dose | 0.958 µg·h/mL
C[C@@]1(c2nc(-c3ccc(F)c4cn[nH]c34)no2)CCCN(C(=O)c2ccc(F)nc2)C1 | male C57BL/6 mouse | plasma | intraperitoneal | 20 mg/kg |  | 11.5 µg·h/mL
O=C(OC(C(F)(F)F)C(F)(F)F)N1CCC(CNS(=O)(=O)c2ccc(Cl)cc2)CC1 | male SCID mouse | brain | oral | 30 mg/kg | single dose | 123 µg·h/mL
CC(=O)c1c(C)c2cnc(Nc3ccc(N4CCNCC4)cn3)nc2n(C2CCCC2)c1=O | mouse | serum | intraperitoneal | 25 mg/kg | single dose | 381 µg·h/mL
CCOC(=O)c1nc2cc(Cl)c(Cl)cc2nc1N1CCN(C(=O)Nc2ccc(N3CCNCC3)cc2)CC1 | male mouse | plasma | intravenous | 3 mg/kg |  | 0.676 µg·h/mL
Cc1cc(NC(=O)[C@H](O)c2cc(F)cc(F)c2)ccc1-c1cnc(N)c(C(=O)NC(C)C)c1 | female nude mouse | plasma | oral | 50 mg/kg | single dose | 39.4 µg·h/mL
O=C(NCCCCc1ccccc1)n1c(=O)oc2cc(-c3ccc(F)cc3)ccc21 | CD-1 mouse | plasma | intravenous | 1 mg/kg |  | 0.853 µg·h/mL
COc1ccccc1/C=C/CNCC(O)COc1ccc(Nc2ccccc2)cc1 (racemic) | mouse | plasma | intraperitoneal | 10 mg/kg |  | 1.04 µg·h/mL
N#CCCC1CCN(C(=S)c2ccc(-c3cc(Cl)ccc3Cl)o2)CC1 | male BALB/c mouse | plasma | oral | 10 mg/kg |  | 0.00639 µg·h/mL
CC(C)(C)c1cnc(CSc2cnc(NC(=O)C3CCN(C(=O)CCCCCCCN4Cc5cc6c(cc5C4)C(=O)N(C4CCC(=O)NC4=O)C6=O)CC3)s2)o1 (stereo not shown) | mouse | plasma | intravenous | 2 mg/kg |  | 0.116 µg·h/mL
CCn1cc(-c2cc(Cn3ccnc3)cc3c2CCN([C@H](c2cc(OC)ccn2)C2CC2)C3=O)c(C(F)(F)F)n1 | male CD-1 mouse | plasma | intravenous | 3 mg/kg |  | 2.56 µg·h/mL
CC[C@H](C)[C@H](NC(=O)[C@H](Cc1ccccc1)NC(=O)[C@H](CCC(=O)O)NC(=O)[C@H](CCCCN)NC(=O)[C@H](C)NC(=O)[C@H](C)NC(=O)[C@H](CCC(N)=O)NC(=O)CNC(=O)[C@H](CCC(=O)O)NC(=O)[C@H](CC(C)C)NC(=O)[C@H](Cc1ccc(O)cc1)NC(=O)[C@H](CO)NC(=O)[C@H](CO)NC(=O)[C@@H](NC(=O)[C@H](CC(=O)O)NC(=O)[C@H](CO)NC(=O)[C@@H](NC(=O)[C@H](Cc1ccccc1)NC(=O)[C@@H](NC(=O)CNC(=O)[C@H](CCC(=O)O)NC(=O)[C@H](C)NC(=O)[C@@H](N)Cc1c[nH]cn1)[C@@H](C)O)[C@@H](C)O)C(C)C)C(=O)N[C@@H](C)C(=O)N[C@@H](Cc1c[nH]c2ccccc12)C(=O)N[C@@H](CC(C)C)C(=O)N[C@H](C(=O)N[C@@H](CCCNC(=N)N)C(=O)NCC(=O)N[C@@H](CCCNC(=N)N)C(=O)NCC(=O)O)C(C)C | male CD-1 mouse | plasma | intravenous | 1 mg/kg | single dose | 0.129 µg·h/mL
CC(C)NC(=O)NC1CC=C(c2cc3c(Nc4cc5ncsc5cc4F)ncnc3s2)CC1 (racemic) | mouse | plasma | intravenous | 10 mg/kg |  | 16.8 µg·h/mL
C[C@@H](Nc1nc2c(cnn2C(C)(C)C)c(=O)n1Cc1cccc(F)c1)c1ccc(Cl)cc1 | C57BL/6 mouse | plasma | intravenous | 2.5 mg/kg |  | 1.29 µg·h/mL
CCC(=O)N1CCC=C(c2cc3c(Nc4cc5ncsc5cc4F)ncnc3s2)C1 | mouse | plasma | intravenous | 10 mg/kg |  | 13.1 µg·h/mL
COc1cnc2cccc(N3CCc4c(cc(Cn5ccnc5)cc4-c4cn(C)nc4C(F)(F)F)C3=O)c2c1 | male CD-1 mouse | plasma | intravenous | 3 mg/kg |  | 2.01 µg·h/mL
COC1C=COC2(C)Oc3c(C)c(O)c4c(c3C2=O)C2=NC3(CCN(CC(C)C)CC3)NC2=C(NC(=O)C(C)=CC=CC(C)C(O)C(C)C(O)C(C)C(OC(=O)c2cncnc2)C1C)C4=O (stereo not shown) | female CD-1 mouse | plasma | oral | 10 mg/kg |  | 33.9 µg·h/mL
Cc1ncsc1-c1ccc(CNC(=O)[C@@H]2C[C@@H](O)CN2C(=O)[C@@H](NC(=O)COCC(C)(COCCOCCOCCNC(=O)C[C@@H]2N=C(c3ccc(Cl)cc3)c3c(sc(C)c3C)-n3c(C)nnc32)COCCOCCOCCNC(=O)C[C@@H]2N=C(c3ccc(Cl)cc3)c3c(sc(C)c3C)-n3c(C)nnc32)C(C)(C)C)cc1 | male C57BL/6 mouse | plasma | intravenous | 5 mg/kg | single dose | 26.3 µg·h/mL
COC(=O)C1=CNC=C(C(=O)OC)C1c1ccc(F)c(C(F)(F)F)c1 | male C57BL/6 mouse | plasma | oral | 50 mg/kg |  | 16.4 µg·h/mL
Cc1cc(NCC(=O)C(C)(C)C)c2nc(N3CCOC[C@H]3C)cc(=O)n2c1 | C57BL/6 mouse | plasma | intraperitoneal | 10 mg/kg | single dose | 2.32 µg·h/mL
O=C(C1CC1)N1CCC=C(c2cc3c(Nc4cc5ncsc5cc4F)ncnc3s2)C1 | mouse | plasma | oral | 10 mg/kg |  | 8.34 µg·h/mL
CC[C@H](C)[C@@H]1NC(=O)[C@@](C)(NC(=O)[C@H](CCCNC(=N)N)NC(=O)[C@H](CC(C)C)NC(=O)[C@]2(C)CCCC=CCCC[C@](C)(NC(C)=O)C(=O)N[C@@H](CC(C)C)C(=O)N[C@@H](CCC(N)=O)C(=O)N2)CCCC=CCCC[C@@](C)(C(=O)N[C@@H](CC(C)C)C(=O)N[C@@H](Cc2ccc3ccccc3c2)C(=O)NCCC(=O)NCCC(N)=O)NC(=O)[C@H](CCCNC(=N)N)NC(=O)[C@H](CCC(N)=O)NC1=O | male BALB/c mouse | plasma | intravenous | 30 mg/kg |  | 996 µg·h/mL
CC(=O)N1CCC=C(c2cc3c(Nc4cc5ncsc5cc4F)ncnc3s2)C1 | mouse | plasma | oral | 10 mg/kg |  | 12.5 µg·h/mL
COC1C=COC2(C)Oc3c(C)c(O)c4c(c3C2=O)C2=NC3(CCN(CC(C)C)CC3)NC2=C(NC(=O)C(C)=CC=CC(C)C(O)C(C)C(O)C(C)C(OC(=O)Nc2cccnn2)C1C)C4=O (stereo not shown) | female CD-1 mouse | plasma | oral | 10 mg/kg |  | 32.7 µg·h/mL
